{"data": "Assay results from different studies", "note": "Every numbered part comes from another study and shows a few of its results, in no order.", "chain of UniProt O00506 (whole entry, looked up)": "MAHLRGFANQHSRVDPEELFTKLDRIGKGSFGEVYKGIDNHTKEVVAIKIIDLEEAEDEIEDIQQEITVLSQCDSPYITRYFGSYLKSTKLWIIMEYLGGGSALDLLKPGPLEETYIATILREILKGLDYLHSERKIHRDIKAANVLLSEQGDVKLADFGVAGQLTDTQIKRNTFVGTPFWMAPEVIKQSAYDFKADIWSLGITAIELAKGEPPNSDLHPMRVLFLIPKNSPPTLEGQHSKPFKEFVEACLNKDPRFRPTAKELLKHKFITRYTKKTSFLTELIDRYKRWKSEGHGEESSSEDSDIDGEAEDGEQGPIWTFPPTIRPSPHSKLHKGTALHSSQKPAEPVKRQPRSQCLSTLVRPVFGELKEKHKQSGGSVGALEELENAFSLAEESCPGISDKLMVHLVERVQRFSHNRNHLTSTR", "chain of UniProt P16591 (whole entry, looked up)": "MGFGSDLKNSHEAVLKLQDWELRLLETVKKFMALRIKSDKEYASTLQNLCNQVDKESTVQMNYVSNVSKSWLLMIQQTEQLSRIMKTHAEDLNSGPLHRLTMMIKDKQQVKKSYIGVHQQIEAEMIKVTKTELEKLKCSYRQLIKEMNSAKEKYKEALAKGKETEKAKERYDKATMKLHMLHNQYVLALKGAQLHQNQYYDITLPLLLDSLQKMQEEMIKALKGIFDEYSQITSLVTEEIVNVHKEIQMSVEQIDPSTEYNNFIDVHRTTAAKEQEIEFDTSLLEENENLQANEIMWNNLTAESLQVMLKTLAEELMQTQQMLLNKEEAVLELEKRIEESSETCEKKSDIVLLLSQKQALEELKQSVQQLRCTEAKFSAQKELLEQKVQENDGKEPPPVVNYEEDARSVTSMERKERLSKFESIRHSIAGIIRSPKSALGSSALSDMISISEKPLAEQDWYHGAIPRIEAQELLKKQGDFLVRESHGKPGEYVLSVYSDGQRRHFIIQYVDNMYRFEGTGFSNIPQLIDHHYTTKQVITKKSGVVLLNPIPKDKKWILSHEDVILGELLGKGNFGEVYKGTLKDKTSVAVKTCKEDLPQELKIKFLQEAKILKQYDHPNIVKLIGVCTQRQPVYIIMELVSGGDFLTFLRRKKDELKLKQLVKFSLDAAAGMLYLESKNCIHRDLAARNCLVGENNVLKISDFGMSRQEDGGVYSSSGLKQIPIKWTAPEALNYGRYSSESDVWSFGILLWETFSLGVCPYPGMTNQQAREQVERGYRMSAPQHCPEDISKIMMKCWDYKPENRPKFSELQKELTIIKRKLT", "chain of UniProt P06213 (whole entry, looked up)": "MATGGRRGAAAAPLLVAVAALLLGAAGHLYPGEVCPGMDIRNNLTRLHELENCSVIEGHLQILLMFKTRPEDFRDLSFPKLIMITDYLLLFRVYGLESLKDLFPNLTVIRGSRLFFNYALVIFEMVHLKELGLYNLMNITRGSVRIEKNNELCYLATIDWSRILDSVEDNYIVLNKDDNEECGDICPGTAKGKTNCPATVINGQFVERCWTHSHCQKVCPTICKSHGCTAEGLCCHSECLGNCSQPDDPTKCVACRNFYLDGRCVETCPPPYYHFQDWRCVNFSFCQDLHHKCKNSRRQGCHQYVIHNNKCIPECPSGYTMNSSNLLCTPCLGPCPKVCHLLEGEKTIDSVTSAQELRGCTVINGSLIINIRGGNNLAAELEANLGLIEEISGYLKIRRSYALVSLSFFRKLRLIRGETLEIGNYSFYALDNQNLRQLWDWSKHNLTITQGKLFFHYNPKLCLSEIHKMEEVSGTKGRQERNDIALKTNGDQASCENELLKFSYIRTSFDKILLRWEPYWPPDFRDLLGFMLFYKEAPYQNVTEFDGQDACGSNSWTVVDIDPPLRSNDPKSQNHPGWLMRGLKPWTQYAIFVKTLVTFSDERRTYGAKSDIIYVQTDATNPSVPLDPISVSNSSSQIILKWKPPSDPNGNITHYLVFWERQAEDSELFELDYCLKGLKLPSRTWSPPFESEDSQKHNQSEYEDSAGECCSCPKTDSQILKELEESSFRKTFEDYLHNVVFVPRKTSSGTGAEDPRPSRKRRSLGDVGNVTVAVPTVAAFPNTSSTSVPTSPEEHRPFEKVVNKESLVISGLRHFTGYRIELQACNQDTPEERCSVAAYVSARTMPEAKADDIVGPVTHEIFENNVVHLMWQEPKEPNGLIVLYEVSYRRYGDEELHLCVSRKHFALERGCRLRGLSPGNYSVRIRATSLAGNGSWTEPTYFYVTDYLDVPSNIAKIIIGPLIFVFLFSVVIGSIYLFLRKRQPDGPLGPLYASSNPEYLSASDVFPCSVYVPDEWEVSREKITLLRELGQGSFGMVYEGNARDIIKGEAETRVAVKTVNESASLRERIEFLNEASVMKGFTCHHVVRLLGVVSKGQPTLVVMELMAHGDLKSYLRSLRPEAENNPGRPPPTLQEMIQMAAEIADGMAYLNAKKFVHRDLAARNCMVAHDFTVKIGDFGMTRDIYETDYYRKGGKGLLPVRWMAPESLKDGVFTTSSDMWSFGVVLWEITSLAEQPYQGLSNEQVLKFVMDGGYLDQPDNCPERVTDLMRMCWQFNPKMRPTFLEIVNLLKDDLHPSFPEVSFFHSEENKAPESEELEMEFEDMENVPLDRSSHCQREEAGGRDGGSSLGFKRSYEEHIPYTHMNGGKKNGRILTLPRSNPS", "chain of UniProt P27448 (whole entry, looked up)": "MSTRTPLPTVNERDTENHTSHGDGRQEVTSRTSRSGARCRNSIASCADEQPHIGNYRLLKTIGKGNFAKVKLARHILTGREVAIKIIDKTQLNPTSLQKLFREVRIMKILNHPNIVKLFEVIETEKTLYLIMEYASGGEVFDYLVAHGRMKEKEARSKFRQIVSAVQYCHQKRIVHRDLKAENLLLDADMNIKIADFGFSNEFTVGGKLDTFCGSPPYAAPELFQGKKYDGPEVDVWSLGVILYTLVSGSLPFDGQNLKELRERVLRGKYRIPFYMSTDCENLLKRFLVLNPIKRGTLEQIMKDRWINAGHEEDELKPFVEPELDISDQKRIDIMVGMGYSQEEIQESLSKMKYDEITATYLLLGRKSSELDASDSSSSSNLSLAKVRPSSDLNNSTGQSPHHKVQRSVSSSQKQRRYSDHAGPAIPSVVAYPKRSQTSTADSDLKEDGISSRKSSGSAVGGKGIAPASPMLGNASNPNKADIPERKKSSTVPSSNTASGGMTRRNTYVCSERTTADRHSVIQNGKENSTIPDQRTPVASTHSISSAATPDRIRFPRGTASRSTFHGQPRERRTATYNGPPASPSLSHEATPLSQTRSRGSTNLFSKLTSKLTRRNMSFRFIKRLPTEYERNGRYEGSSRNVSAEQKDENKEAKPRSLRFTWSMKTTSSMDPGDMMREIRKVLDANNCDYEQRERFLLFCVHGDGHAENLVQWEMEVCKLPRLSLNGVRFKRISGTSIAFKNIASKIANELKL", "chain of UniProt P09769 (whole entry, looked up)": "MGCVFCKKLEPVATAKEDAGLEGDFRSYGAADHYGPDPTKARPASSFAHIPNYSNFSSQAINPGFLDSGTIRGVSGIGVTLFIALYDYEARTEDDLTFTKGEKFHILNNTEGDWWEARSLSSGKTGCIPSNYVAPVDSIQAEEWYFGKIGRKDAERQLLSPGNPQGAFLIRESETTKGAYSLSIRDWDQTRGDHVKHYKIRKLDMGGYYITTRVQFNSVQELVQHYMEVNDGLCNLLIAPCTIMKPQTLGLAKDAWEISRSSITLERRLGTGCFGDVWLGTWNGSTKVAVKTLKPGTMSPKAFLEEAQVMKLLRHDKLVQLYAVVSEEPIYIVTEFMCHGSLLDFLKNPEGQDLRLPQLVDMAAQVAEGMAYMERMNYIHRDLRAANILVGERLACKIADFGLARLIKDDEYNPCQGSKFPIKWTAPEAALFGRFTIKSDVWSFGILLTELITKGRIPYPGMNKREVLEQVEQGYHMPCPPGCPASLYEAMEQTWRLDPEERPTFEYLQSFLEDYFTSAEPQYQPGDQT", "chain of UniProt Q00526 (whole entry, looked up)": "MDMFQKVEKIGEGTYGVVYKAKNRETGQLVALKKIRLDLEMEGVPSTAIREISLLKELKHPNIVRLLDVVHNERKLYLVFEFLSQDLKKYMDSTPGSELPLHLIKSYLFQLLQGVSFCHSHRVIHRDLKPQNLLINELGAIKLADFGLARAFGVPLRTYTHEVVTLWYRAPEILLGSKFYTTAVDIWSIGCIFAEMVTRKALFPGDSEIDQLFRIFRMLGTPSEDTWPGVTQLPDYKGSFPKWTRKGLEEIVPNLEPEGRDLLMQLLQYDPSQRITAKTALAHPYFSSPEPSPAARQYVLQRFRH"}
{"data": "Study 1", "target": "Calcium/calmodulin-dependent protein kinase type II subunit alpha (CAMK2A, Homo sapiens, UniProt Q9UQM7)", "observed": "enzyme activity", "action": "inhibitor", "concentration": "10 µM", "chain of UniProt Q9UQM7 (whole entry, looked up)": "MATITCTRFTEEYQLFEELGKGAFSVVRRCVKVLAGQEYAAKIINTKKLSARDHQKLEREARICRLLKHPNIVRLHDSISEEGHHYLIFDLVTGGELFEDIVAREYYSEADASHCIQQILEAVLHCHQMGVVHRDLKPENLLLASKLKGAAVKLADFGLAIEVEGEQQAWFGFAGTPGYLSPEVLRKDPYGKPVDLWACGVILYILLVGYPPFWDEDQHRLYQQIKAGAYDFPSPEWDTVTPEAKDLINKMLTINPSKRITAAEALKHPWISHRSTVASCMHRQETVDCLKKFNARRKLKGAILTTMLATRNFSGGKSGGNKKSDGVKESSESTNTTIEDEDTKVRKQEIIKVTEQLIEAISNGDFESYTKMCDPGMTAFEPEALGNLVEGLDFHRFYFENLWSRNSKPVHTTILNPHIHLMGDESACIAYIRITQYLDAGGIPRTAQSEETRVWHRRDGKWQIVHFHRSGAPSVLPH"}
{"Compound": "NC1CCCNC1=O (centres unmarked)", "inhibition [%]": 25}
{"Compound": "COC(=O)c1ccco1", "inhibition [%]": -31}
{"Compound": "CCC[C@@H]1C[C@@H](C(=O)N[C@@H]([C@H]2O[C@H](SC)[C@H](O)[C@@H](O)[C@H]2O)[C@H](C)Cl)N(C)C1", "inhibition [%]": 3}
{"Compound": "CC(=O)N[C@@H](CC(N)=O)C(=O)O", "inhibition [%]": -12}
{"Compound": "CCCC(=O)C(=O)O", "inhibition [%]": -20}
{"Compound": "C[C@H]1CC[C@@H]2[C@@H](C)[C@H]3[C@H](C[C@H]4[C@@H]5CC=C6C[C@@H](O)CC[C@]6(C)[C@H]5CC[C@]34C)N2C1", "inhibition [%]": 24}
{"Compound": "CSCC[C@H](NC(=O)[C@H](Cc1ccccc1)NC(=O)[C@H](Cc1cnc[nH]1)NC(=O)CNC(=O)[C@@H](NC(=O)[C@H](C)NC(=O)[C@H](Cc1c[nH]c2ccccc12)NC(=O)[C@H](CCC(N)=O)NC(=O)[C@@H]1CCC(=O)N1)C(C)C)C(N)=O", "inhibition [%]": -12}
{"Compound": "C#C[C@]1(O)CC[C@H]2[C@@H]3CCc4cc(O)ccc4[C@H]3CC[C@@]21C", "inhibition [%]": 11}
{"Compound": "C#C[C@]1(O)CC[C@H]2[C@@H]3CCC4=CC(=O)CC[C@@H]4[C@H]3CC[C@@]21C", "inhibition [%]": -4}
{"Compound": "O=C(CCCCc1ccc2c(c1)OCO2)N1CCCCC1", "inhibition [%]": -26}
{"data": "Study 2", "Structure (SMILES)": "CN(C)S(=O)(=O)c1ccc2c(c1)/C(=C/c1cc3c([nH]1)CCCC3)C(=O)N2", "observed": "enzyme activity", "action": "inhibitor", "concentration": "0.5 µM", "relative to": "control"}
{"target": "AKT1 (Homo sapiens, UniProt P31749)", "remaining activity [%]": 107}
{"target": "FLT4 (Homo sapiens, UniProt P35916)", "remaining activity [%]": 78.1}
{"target": "Cyclin-dependent kinase 3, with cyclin E (CDK3, Homo sapiens, UniProt Q00526)", "remaining activity [%]": 96.9}
{"target": "CDC42BPA (Homo sapiens, UniProt Q5VT25)", "remaining activity [%]": 92.3}
{"target": "MARK3 (Homo sapiens, UniProt P27448)", "remaining activity [%]": 68.9}
{"target": "STK25 (Homo sapiens, UniProt O00506)", "remaining activity [%]": 79.6}
{"target": "FGR (Homo sapiens, UniProt P09769)", "remaining activity [%]": 18.2}
{"target": "ALK (Homo sapiens, UniProt Q9UM73)", "remaining activity [%]": 43.6}
{"target": "SRC (Homo sapiens, UniProt P12931)", "remaining activity [%]": 23.6}
{"target": "Insulin receptor (INSR, Homo sapiens, UniProt P06213)", "remaining activity [%]": 91.6}
{"target": "TAOK3 (Homo sapiens, UniProt Q9H2K8)", "remaining activity [%]": 55.4}
{"target": "PRKX (Homo sapiens, UniProt P51817)", "remaining activity [%]": 98.1}
{"target": "FER (Homo sapiens, UniProt P16591)", "remaining activity [%]": 51.8}
{"data": "Study 3", "species": "mouse", "sample": "microsomes or S9", "concentration": "2 µM", "time": "0.5 h"}
{"Structure (SMILES)": "CN(C(=O)CN1CC[C@@H]2OCc3cnnn3[C@H]2C1)c1ccccc1", "remaining compound [%]": 78.2}
{"Structure (SMILES)": "Cn1nccc1-c1ccnc2nc(Cc3ccc4c(c3)CCC(C)(C)O4)nn12", "remaining compound [%]": 6.96}
{"Structure (SMILES)": "COc1ccccc1-c1n[nH]cc1CN1CCCN(S(=O)(=O)c2cn(C)cn2)C(c2ccccc2)CC(=O)NCC1 (centres unmarked)", "remaining compound [%]": 40}
{"Structure (SMILES)": "Cc1ccsc1C1Nc2ccc3ncccc3c2C2=C1C(=O)CCC2 (centres unmarked)", "remaining compound [%]": 21.8}
{"Structure (SMILES)": "N#Cc1ccc(OC2CCC(Nc3ncnc(N)c3Cl)CC2)nc1 (centres unmarked)", "remaining compound [%]": 88.2}
{"Structure (SMILES)": "CCOC(=O)Cn1ccc2cc(N3C(=O)N4CCCC4(C)C3=O)ccc21 (centres unmarked)", "remaining compound [%]": "> 100"}
{"Structure (SMILES)": "CCc1[nH]c(C(=O)Nc2cc(S(=O)(=O)N3CCCC3)ccc2O)c(C)c1C(=O)OC", "remaining compound [%]": "< 1"}
{"Structure (SMILES)": "CCc1nc2cc(-c3ccc(OC)nc3)cnc2[nH]1", "remaining compound [%]": 48.1}
{"Structure (SMILES)": "Cc1cc(C(=O)O)nn1-c1ccc(S(C)(=O)=O)cc1", "remaining compound [%]": 97.7}
{"Structure (SMILES)": "c1ccc2c(c1)cnn2CCCNc1ncnc2c1CCNCC2", "remaining compound [%]": 90}
{"Structure (SMILES)": "CC1CCNC2CN(c3nc4c(cc3F)c(=O)c(C(=O)O)cn4-c3ncc(F)cc3F)CC12 (centres unmarked)", "remaining compound [%]": "> 100"}
{"Structure (SMILES)": "COc1ccc(C2N=C(O)c3ccccc3O2)c(OC)c1OC (centres unmarked)", "remaining compound [%]": 1.15}
{"Structure (SMILES)": "COc1cc(=O)n(-c2ccccc2)cc1C(=O)NCC1CCCO1 (centres unmarked)", "remaining compound [%]": 61.6}
{"data": "Mixed results", "observed": "binding", "technique": "radioligand binding"}
{"SMILES": "O=C(Nc1ccc(-n2nc(-c3cccnc3)cc2C(F)(F)F)cn1)c1ccc(-c2ccccc2)c(F)c1", "target": "HTR1E (Homo sapiens, UniProt P28566)", "conditions": "10 µM", "measurement": "inhibition", "result": "-4.45%"}
{"SMILES": "CC(=O)c1c(NS(C)(=O)=O)c2cc(-c3ccc(Cl)cc3)c(-c3ccc(Cl)cc3Cl)nc2n(C)c1=O", "target": "ADRA2C (Homo sapiens, UniProt P18825)", "measurement": "Ki", "result": "> 10 µM"}
{"note": "A few entries again (study 2):"}
{"target": "MARK3 (Homo sapiens, UniProt P27448)", "remaining activity [%]": 68.9}
{"target": "STK25 (Homo sapiens, UniProt O00506)", "remaining activity [%]": 79.6}
{"target": "FGR (Homo sapiens, UniProt P09769)", "remaining activity [%]": 18.2}
